Published values pooled from the literature.
Compare with care: the assays were run in different laboratories. Several values in a cell are separate wells, animals, samples, runs or records. Numbers after ± are the reported error.
APP amyloid-beta peptide: Amyloid-beta precursor protein, amyloid-beta peptide (APP, Homo sapiens, UniProt P05067)
ESR1: Estrogen receptor (ESR1, Homo sapiens, UniProt P03372)
SYK with FCER1G: Tyrosine-protein kinase SYK, with FCER1G (SYK, Homo sapiens, UniProt P43405)
IDO1: Indoleamine 2,3-dioxygenase 1 (IDO1, Homo sapiens, UniProt P14902)

By UniProt entry, the sequences of proteins in these tests, tags left out. Residues count along the entry.
UniProt P05067, whole entry, looked up: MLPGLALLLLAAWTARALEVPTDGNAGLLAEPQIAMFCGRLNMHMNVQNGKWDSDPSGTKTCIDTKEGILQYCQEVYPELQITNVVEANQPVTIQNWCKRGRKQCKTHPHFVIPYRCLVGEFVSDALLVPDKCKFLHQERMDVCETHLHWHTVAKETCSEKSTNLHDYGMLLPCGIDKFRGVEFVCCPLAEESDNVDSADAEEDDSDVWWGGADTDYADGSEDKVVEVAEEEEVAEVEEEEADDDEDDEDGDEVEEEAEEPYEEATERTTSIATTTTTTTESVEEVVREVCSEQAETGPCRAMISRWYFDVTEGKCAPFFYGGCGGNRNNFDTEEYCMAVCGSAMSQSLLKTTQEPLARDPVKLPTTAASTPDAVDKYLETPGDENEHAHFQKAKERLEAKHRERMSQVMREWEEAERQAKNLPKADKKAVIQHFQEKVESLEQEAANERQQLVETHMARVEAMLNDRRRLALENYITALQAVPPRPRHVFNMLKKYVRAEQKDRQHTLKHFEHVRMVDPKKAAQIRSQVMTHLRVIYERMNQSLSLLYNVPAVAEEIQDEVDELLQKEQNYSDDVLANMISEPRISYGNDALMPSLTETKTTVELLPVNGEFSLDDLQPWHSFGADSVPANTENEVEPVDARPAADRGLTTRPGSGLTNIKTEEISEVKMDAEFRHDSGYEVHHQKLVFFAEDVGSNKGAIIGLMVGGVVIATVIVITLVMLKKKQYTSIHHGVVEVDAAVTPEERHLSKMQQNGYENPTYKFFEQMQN
UniProt Q13304, whole entry: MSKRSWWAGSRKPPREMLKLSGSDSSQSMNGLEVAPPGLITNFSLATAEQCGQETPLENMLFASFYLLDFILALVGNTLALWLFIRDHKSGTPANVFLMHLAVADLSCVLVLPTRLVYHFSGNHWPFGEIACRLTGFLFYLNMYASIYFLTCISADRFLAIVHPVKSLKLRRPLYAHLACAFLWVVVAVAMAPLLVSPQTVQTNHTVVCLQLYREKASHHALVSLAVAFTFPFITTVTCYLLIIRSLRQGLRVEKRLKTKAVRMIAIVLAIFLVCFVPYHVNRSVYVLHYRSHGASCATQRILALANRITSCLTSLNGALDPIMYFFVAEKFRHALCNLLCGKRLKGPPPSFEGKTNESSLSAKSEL
UniProt Q9UM73, whole entry, looked up: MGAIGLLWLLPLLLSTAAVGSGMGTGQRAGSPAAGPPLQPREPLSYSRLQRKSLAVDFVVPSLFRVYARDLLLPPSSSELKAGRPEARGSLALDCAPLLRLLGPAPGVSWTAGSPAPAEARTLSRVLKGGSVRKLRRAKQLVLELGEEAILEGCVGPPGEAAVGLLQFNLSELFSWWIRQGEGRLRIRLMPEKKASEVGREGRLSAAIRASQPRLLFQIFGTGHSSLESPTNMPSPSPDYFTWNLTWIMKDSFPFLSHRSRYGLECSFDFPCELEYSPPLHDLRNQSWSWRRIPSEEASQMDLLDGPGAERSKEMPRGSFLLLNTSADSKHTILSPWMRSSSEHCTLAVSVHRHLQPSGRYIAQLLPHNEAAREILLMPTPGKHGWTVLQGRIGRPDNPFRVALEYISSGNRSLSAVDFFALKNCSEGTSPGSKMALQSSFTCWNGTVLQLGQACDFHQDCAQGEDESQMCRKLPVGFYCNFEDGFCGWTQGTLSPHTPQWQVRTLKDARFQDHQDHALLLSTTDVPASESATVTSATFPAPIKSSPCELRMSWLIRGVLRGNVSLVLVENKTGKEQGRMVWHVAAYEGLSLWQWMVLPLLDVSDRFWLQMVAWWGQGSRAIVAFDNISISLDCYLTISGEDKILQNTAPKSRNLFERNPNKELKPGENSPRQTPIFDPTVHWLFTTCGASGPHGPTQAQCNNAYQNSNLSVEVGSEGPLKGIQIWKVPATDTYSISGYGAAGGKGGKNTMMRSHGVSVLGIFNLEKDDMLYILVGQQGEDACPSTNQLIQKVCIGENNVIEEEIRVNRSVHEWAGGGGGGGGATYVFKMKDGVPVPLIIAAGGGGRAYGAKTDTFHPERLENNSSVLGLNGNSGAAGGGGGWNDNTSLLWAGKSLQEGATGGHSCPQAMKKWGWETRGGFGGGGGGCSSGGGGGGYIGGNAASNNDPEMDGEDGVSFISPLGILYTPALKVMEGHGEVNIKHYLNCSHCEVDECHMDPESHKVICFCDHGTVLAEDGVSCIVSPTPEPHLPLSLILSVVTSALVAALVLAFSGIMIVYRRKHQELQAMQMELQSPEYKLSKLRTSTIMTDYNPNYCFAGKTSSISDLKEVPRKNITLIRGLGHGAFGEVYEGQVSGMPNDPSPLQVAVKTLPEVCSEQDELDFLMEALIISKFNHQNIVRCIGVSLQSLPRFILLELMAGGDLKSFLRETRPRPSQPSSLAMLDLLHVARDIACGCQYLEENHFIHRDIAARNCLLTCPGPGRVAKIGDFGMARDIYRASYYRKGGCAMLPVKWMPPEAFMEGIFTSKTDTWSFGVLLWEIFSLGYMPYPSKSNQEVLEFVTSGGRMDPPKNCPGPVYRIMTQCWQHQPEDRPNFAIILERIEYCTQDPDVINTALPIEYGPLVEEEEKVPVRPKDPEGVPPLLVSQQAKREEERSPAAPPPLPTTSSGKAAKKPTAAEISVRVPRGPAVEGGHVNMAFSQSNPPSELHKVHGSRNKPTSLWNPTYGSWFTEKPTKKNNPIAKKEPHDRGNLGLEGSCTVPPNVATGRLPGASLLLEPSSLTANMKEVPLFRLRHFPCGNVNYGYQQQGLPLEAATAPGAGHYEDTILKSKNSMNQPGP
UniProt Q6P5Z2, whole entry: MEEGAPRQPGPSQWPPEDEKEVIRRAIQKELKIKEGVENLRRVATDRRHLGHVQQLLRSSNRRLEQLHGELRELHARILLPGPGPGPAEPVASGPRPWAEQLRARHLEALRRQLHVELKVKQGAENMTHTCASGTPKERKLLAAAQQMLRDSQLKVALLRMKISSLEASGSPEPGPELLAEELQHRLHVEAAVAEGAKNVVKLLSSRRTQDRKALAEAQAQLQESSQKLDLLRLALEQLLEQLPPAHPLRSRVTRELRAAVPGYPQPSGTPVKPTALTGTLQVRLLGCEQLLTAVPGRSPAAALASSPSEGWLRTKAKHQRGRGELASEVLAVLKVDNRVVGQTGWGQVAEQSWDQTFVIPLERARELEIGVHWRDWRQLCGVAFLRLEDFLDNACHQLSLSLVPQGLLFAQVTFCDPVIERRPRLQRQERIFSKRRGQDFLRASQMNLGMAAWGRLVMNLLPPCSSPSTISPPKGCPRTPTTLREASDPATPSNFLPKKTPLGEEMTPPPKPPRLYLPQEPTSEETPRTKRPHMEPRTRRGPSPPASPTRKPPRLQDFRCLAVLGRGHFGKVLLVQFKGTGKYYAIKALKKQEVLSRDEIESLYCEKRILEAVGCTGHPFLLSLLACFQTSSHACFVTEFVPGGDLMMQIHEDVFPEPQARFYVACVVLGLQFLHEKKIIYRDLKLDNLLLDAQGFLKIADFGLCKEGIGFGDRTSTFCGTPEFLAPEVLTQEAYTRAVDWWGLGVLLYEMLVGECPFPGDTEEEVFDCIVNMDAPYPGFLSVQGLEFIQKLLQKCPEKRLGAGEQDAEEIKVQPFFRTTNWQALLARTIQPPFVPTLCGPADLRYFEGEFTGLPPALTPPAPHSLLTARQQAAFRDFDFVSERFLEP
UniProt P09917, whole entry: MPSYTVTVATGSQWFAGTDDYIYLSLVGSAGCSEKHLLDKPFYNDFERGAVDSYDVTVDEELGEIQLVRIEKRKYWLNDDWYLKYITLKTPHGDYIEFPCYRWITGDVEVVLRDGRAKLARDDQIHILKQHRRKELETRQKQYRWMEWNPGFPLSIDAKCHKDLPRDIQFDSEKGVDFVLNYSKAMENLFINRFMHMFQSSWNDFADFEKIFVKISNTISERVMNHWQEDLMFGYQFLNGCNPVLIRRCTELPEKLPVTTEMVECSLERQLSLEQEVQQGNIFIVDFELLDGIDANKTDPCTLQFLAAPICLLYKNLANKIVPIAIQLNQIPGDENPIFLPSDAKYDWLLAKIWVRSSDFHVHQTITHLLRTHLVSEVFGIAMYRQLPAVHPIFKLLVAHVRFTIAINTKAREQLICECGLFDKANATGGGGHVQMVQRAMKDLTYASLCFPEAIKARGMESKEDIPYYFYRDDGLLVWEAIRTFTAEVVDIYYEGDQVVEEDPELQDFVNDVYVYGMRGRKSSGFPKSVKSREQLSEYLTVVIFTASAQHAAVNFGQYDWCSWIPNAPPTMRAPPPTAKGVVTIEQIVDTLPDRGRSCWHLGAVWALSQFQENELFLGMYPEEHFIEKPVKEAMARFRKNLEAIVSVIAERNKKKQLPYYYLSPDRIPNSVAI
UniProt Q9NV35, whole entry: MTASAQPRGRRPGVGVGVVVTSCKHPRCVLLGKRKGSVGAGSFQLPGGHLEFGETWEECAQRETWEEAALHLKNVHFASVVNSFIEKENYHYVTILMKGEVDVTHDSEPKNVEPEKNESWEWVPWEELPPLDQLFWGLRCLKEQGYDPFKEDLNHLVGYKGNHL
UniProt P51812, 68-327 limits assumed: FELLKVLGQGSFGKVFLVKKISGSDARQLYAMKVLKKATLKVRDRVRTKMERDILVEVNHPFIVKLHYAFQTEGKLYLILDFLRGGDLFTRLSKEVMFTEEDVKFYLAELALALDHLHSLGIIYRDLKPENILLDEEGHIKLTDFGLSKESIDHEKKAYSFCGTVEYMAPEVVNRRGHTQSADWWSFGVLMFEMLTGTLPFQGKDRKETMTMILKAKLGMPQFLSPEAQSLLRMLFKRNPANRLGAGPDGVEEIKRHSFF
UniProt O14965, whole entry: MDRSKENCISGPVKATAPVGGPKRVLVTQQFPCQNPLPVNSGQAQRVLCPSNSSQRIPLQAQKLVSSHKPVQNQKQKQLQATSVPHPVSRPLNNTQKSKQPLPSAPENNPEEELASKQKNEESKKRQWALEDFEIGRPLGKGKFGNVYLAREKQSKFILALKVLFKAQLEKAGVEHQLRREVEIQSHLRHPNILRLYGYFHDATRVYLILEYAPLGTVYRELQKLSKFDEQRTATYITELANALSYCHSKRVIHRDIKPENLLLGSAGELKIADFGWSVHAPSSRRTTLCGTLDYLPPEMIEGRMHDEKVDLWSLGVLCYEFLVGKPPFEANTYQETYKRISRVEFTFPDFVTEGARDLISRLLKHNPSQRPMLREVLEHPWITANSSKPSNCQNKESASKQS
UniProt Q8N6T7, whole entry: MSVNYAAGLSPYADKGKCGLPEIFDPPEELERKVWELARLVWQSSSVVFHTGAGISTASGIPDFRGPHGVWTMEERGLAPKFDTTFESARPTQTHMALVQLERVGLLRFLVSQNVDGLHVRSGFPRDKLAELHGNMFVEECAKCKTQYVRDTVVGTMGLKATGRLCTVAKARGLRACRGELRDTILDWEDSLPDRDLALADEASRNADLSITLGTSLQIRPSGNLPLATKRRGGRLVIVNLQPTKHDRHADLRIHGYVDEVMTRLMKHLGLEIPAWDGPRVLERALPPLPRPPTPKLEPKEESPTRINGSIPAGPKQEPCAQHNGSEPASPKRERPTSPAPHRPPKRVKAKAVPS
UniProt P29466, whole entry, looked up: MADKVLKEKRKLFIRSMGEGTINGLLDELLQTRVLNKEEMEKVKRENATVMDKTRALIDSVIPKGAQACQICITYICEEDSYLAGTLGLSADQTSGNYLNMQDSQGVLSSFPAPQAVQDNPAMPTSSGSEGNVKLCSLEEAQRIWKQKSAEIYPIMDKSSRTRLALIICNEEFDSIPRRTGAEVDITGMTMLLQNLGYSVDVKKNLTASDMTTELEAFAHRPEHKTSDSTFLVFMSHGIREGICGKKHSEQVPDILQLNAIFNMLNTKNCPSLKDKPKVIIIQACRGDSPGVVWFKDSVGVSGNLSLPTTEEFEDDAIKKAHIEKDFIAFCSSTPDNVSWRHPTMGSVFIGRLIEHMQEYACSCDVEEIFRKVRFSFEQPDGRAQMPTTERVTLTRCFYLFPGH
UniProt Q96RJ0, whole entry: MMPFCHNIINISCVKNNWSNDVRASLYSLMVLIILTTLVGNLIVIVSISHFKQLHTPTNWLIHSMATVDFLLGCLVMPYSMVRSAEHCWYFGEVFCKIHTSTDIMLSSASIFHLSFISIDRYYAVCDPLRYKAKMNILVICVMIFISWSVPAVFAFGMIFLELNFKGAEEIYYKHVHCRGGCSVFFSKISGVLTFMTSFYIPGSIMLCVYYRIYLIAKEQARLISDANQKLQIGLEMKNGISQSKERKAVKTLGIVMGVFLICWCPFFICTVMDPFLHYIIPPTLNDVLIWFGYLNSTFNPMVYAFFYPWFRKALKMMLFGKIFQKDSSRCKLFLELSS
UniProt Q9BV23, whole entry: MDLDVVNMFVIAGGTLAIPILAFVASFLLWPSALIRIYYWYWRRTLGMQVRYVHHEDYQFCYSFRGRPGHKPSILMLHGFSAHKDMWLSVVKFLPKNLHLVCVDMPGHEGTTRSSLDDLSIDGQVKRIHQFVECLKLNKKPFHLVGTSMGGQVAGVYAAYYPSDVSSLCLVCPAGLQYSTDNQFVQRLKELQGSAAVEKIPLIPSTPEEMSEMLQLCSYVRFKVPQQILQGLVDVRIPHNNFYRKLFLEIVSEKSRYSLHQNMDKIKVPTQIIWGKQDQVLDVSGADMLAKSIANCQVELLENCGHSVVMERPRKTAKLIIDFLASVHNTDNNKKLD

`O=C(Nc1ccc(Cl)cc1)C(NS(=O)(=O)c1cccs1)c1ccccc1` (single isomer, unassigned) gave an IC50 of 12.6 ± 0.28 µM (Uracil nucleotide/cysteinyl leukotriene receptor, long isoform (GPR17, Homo sapiens, UniProt Q13304); calcium mobilization, antagonist; 1321-N1).
For `Fc1ccc2[nH]cc(/C=C/c3ccncc3)c2c1`, the IC50 was over 20 µM (APP amyloid-beta peptide; Aβ42 oligomerisation, ELISA).
With `O=C(NO)c1c(F)cccc1F` the IC50 was 18.9 µM (HDAC6 (Homo sapiens, UniProt Q9UBN7); enzyme activity, inhibitor, electrophoretic mobility shift; added: FAM-RHKK(Ac)-NH2 1 µM).
The IC50 of `O=C(NCc1ccc(F)cc1)C(=O)[C@H](Cc1ccccc1)NC(=O)[C@H]1CCC(=O)N1Cc1ccc(F)cc1` is reported as 0.14 ± 0.02 µM (CAPN1 (Homo sapiens, UniProt P07384); enzyme activity, inhibitor).
With `COC(=O)CSCCc1nc(-c2ccc(Cl)c(Cl)c2)cs1` the IC50 was 17 µM (ALK (Homo sapiens, UniProt Q9UM73); ELISA).
With `CC(C)NC(=O)CSc1nc2ccc(NC(=O)CSc3ccccc3Cl)cc2s1` the IC50 was 20 to 50 µM (ESR1; reporter gene, antagonist; HEC-1 transfected ERα luciferase reporter).
The IC50 of `O=C(O)c1cc(C(=O)N[C@@H](Cc2c[nH]c3ccccc23)C(=O)O)cc([C@H]2CCN[C@@H]2C(=O)O)c1` is reported as 10 µM (AMPA receptor (rat); binding, radioligand binding; rat cortical synaptosomes; added: [3H]AMPA).
`Nc1ccc(Cl)c2cccnc12` gave an IC50 of over 15 µM (Methionine aminopeptidase 2 (Homo sapiens, UniProt P50579); enzyme activity, inhibitor, coupled; added: Met-Pro-pNA substrate, Mn2+ 10 µM).
`CS(=O)(=O)Nc1ccc(/C=C/c2c[nH]c3ccc(C#N)cc23)cc1` gave an IC50 of 17.2 µM (APP amyloid-beta peptide; Aβ42 oligomerisation, ELISA).
`COc1cc2nccc(Nc3ccc(OCc4cccc(F)c4)c(Cl)c3)c2cc1OC` gave an IC50 of 8.2 µM (PKN3 (Homo sapiens, UniProt Q6P5Z2); binding, split-luciferase).
The IC50 of `Clc1ccc(C2(c3ccc(-c4ccnc5ncccc45)cc3)CCNCC2)cc1` is reported as over 10 µM (LATS1 (Homo sapiens, UniProt O95835); kinase activity, inhibitor, radiometric HotSpot; added: ATP 10 µM).
`CN1CCC[C@@H]1C(=O)N[C@@H](Cc1ccc(-c2ccccn2)cc1)B(O)O` has an IC50 of over 10 µM (Proteasome subunit beta type-9 / Proteasome subunit beta type-10 (Homo sapiens, UniProt P28065+P40306); β1i enzyme activity, inhibitor; added: Ac-PAL-AMC).
`COc1ccc(NC(=O)N[C@H](Cc2ccc(C#N)cc2)C(=O)NCC2(c3cccc(O)c3)CC2)cc1` has an IC50 of 2.1 ± 0.4 µM (FPR2 (Homo sapiens, UniProt P25090); calcium mobilization; FPR2-transfected HL-60; desensitization pretreatment, added: WKYMVM 5 nM).
`C=CC(=O)Nc1cc(Nc2ncnc(Nc3ccccc3F)n2)c(OC)cc1N(C)CCN(C)C` has an IC50 of 0.017 µM (EGFR (Homo sapiens, UniProt P00533); EGFR phosphorylation, inhibitor, MSD, item: phospho-EGFR; A-431).
The IC50 of `CCOc1ccc(S(=O)(=O)NC(=O)Cc2ccc(Oc3ccccc3)cc2)cc1Br` is reported as 58.4 µM (CGAS (Homo sapiens, UniProt Q8N884); enzyme activity, inhibitor, Kinase-Glo ATP depletion; 25 °C, 100 nM enzyme).
For `NCCCSc1c2cc(O)ccc2nc2ccc(O)cc12`, the IC50 was 0.17 µM (DYRK2 (Homo sapiens, UniProt Q92630); inhibitor; added: Woodtide peptide).
The IC50 of `Cc1n[nH]c(C)c1-c1ccc(C2(c3ccc(Cl)cc3)CCNCC2)cc1` is reported as 0.073 µM (LATS2 (Homo sapiens, UniProt Q9NRM7); kinase activity, inhibitor, radiometric HotSpot; added: ATP 10 µM).
`CC(C)c1ccc(SCC(=O)Nc2ccc3nc(SCC(=O)NC4CC4)sc3c2)cc1` gave an IC50 of 20 to 50 µM (ESR1; reporter gene, antagonist; HEC-1 transfected ERα luciferase reporter).
The IC50 of `COc1ccc([C@@H](CCc2ccc(O)cc2OC)c2cc3c(c(C)c2O)O[C@H](c2ccc(O)cc2)CC3)cc1` is reported as 0.8 µM (ALOX5 (Homo sapiens, UniProt P09917); enzyme activity; cell-free).
With `CS(=O)(=O)Oc1cccc(/C=C/c2c[nH]c3ccc(C#N)cc23)c1` the IC50 was 7.3 µM (APP amyloid-beta peptide; Aβ42 oligomerisation, ELISA).
The IC50 of `CN1CCN(Cc2ccc(NC(=O)c3cncc(C#Cc4cncc5ncccc45)c3)cc2C(F)(F)F)CC1` is reported as 0.00479 ± 0.00026 µM (Kinesin-1 heavy chain/ Tyrosine-protein kinase receptor RET (RET/KIF5B, Homo sapiens, UniProt P07949+P33176, G810V); cell viability, inhibitor, CellTiter-Glo; Ba/F3 KIF5B-RET G810V).
With `N#Cc1cnc(Nc2nc3ccccc3o2)nc1-c1cccc(C(F)(F)F)c1` the IC50 was over 30 µM (Grm5 (Rattus norvegicus, UniProt P31424); calcium mobilization, negative allosteric modulator; added: glutamate EC80).
The IC50 of `O=C(Nc1ccc(-c2nc3ccccc3[nH]2)cc1)C1CCCC1` is reported as over 100 µM (SYK with FCER1G; protein binding, inhibitor, TR-FRET).
`NC(=O)c1cccc(-c2n[nH]c3cccc(Cl)c23)c1` gave an IC50 of 1.3 µM (MAP2K4 (Homo sapiens, UniProt P45985); enzyme activity, ADP-Glo; added: p38α substrate).
For `COc1ccc(-n2nc3c(=O)[nH]nc(N)c3c2-c2oc3ccc(C)cc3c2C)cc1`, the IC50 was 0.0366 ± 0.0077 µM (FGFR1 (Homo sapiens, UniProt P11362); kinase activity, inhibitor, ELISA).
`CC1=CC(C)=NC1=C(CCCC(=O)NCCCCCC(=O)NCCCC[C@H](NC(=O)N[C@@H](CCC(=O)O)C(=O)O)C(=O)O)c1[nH]c(C)cc1C` has an IC50 of over 1 µM (FOLH1 (Homo sapiens, UniProt Q04609); binding, radioligand competition; LNCaP; 2 h, room temperature, added: [177Lu]Lu-PSMA-617).
With `O=C(CCc1ccccc1)N1CCN(S(=O)(=O)c2ccc3[nH]c(=O)oc3c2)CC1` the IC50 was 6.1 µM (NUDT15 (Homo sapiens, UniProt Q9NV35); enzyme activity, inhibitor, malachite green; added: dGTP).
With `CC(=NNC(=N)N)c1ccc(NC(=O)c2c[nH]c3ccccc23)cc1` the IC50 was over 100 µM (RPS6KA3 (Homo sapiens, UniProt P51812); kinase activity, inhibitor, IMAP fluorescence polarisation; 60 min).
`Cc1ncc(CCc2ccc3c(c2)c(=O)c(C(N)=O)cn3-c2ccc(F)cc2)cn1` gave an IC50 of 0.215 µM (Grm2 (Rattus norvegicus, UniProt P31421); calcium mobilization, negative allosteric modulator).
`CN1CC[C@H](c2c(O)cc(O)c3c(=O)cc(-c4ccccc4F)oc23)[C@H](O)C1` gave an IC50 of over 1 µM (Aurora kinase A (AURKA, Homo sapiens, UniProt O14965); ATP at Km).
The IC50 of `N#Cc1ccc2[nH]cc(/C=C/c3cccc(F)c3)c2c1` is reported as 1.8 µM (IDO1; enzyme activity, inhibitor).
For `NC(=O)c1ccc(C(=O)NOCc2ccc(Sc3ccccc3F)c(C(F)(F)F)c2)cc1`, the IC50 was 1.59 ± 0.05 µM (SIRT6 (Homo sapiens, UniProt Q8N6T7); deacetylase activity, inhibitor, fluorogenic; added: RHKK-ac-AMC).
`Cc1ccccc1C(=O)Nc1ccc(-c2nc3ccccc3[nH]2)cc1` has an IC50 of over 100 µM (SYK with FCER1G; protein binding, inhibitor, TR-FRET).
The IC50 of `O=C(c1ccc(O)c(Cl)c1)N1Cc2ccccc2C1` is reported as over 100 µM (HSP90AB1 (Homo sapiens, UniProt P08238); binding, fluorescence polarization; added: FITC-geldanamycin tracer).
`COc1cc([C@@H]2c3cc4c(cc3C=C(C=O)[C@H]2C(=O)OCCCn2cnc3c(Cl)ncnc32)OCO4)cc(OC)c1OC` gave an IC50 of over 20 µM (Tubulin alpha/beta heterodimer (Leishmania infantum, UniProt A0A381MCS3+A4HTR0); tubulin polymerization, inhibitor; 37 °C, added: tubulin 1.2 mg/mL).
The IC50 of `N#Cc1ccc2[nH]cc(/C=C/c3ccc(CO)cc3)c2c1` is reported as 12.3 µM (IDO1; enzyme activity, inhibitor).
For `FC(F)(F)c1ccc(CCN2CCN(c3cc(N4CCCC4)nc(N4CCCC4)n3)CC2)cc1`, the IC50 was 0.013 µM (Caspase-1 (CASP1, Homo sapiens, UniProt P29466); enzyme activity, inhibitor; 30 min preincubation, added: Ac-WEHD-AMC 10 µM).
The IC50 of `O=C(NCc1ccc(-c2cnco2)cc1)[C@@H]1C[C@@H](O)CN1C(=O)c1cccc(O)c1` is reported as 23.4 ± 0.4 µM (von Hippel-Lindau disease tumor suppressor, with elongin B, C (VHL, Homo sapiens, UniProt P40337); binding, fluorescence polarization; 10% DMSO, added: FAM-HIF1α peptide tracer).
`COc1ccc(NC(=O)CSc2nc(-c3ccc(F)cc3)cc(C(F)(F)F)c2C#N)cc1` gave an IC50 of over 10 µM (TAAR1 (Homo sapiens, UniProt Q96RJ0)).
`CNc1ccc(Br)cc1-c1nc2ccccc2[nH]c1=O` has an IC50 of over 50 µM (Protein diaphanous homolog 1, FH2 domain (Diaph1, Mus musculus, UniProt O08808); actin assembly, inhibitor, pyrene-actin polymerization).
With `Cc1ccc(-c2cc(CF)nn2-c2ccc(S(C)(=O)=O)cc2)cc1` the IC50 was over 4 µM (PTGS1 (Ovis aries, UniProt P05979); inhibitor; concentration not given).
For `O=C(OC(C(F)(F)F)C(F)(F)F)N1Cc2ccc(OCC3CC3)cc2C1`, the IC50 was 0.0041 µM and 0.004 µM (ABHD6 (Homo sapiens, UniProt Q9BV23); inhibitor, fluorescence).
`Cn1cnc(S(=O)(=O)N2C[C@@H]3[C@H](C2)[C@@]3(CNC(=O)c2ccc(Cl)cc2Cl)CC2CC2)c1` (relative stereo) gave an IC50 of 0.004 µM (SLC6A9 (Homo sapiens, UniProt P48067); glycine uptake, inhibitor, [14C]glycine uptake; cells expressing target).
For `O=C1OC2CC1N(C(=O)c1cc(Cc3n[nH]c(=O)c4ccccc34)ccc1F)C2` (centres unmarked), the IC50 was 0.00144 µM (PARP1 (Homo sapiens, UniProt P09874); enzyme activity; experiment Exp3).
